Experimental data gathered from unrelated publications.
Lines come from different studies, so protocols differ. Values joined by “and” are separate records of one study, mostly repeats; a detail may differ. ≈ marks a conversion by molar mass, not a printed value.
Organism: Staphylococcus epidermidis

Oc1c(Br)cc(Br)c2nc3c(F)cccc3nc12 — MIC (broth microdilution; 12228): 0.78 µM (≈ 0.29 µg/mL)
CN[C@H](CC(C)C)C(=O)N[C@H]1C(=O)N[C@@H](CC(N)=O)C(=O)N[C@H]2C(=O)N[C@H]3C(=O)N[C@H](C(=O)N[C@H](C(=O)O)c4cc(O)cc(O)c4-c4cc3ccc4O)[C@H](O)c3ccc(c(Cl)c3)Oc3cc2cc(c3O[C@@H]2O[C@H](CO)[C@@H](O)[C@H](O)[C@H]2O[C@H]2C[C@](C)(N)[C@H](O)[C@H](C)O2)Oc2ccc(cc2Cl)[C@H]1O — bacterial load (9397, female ICR mice, peritonitis, heart; dose not given): 5.35 log CFU and 3.86 log CFU and 4.9 log CFU and 3.81 log CFU and 4.97 log CFU and 3.75 log CFU
c1ccc(CN(CCN(Cc2ccccn2)Cc2ccccn2)Cc2ccccn2)nc1 — MBC (Calgary biofilm device; MRSE 35984; planktonic cells): 1000 µM (≈ 425 µg/mL)
C[C@H]1COC2=C1C(=O)C(=O)c1c2ccc2c1CCCC2(C)C — MIC (GDMCC 1.143; 48 h): 125 µM (≈ 37 µg/mL)
C=C[C@]1(C)C[C@@H](OC(=O)CS[C@@H]2C[C@H]3CC[C@@H](C2)N3C)[C@]2(C)[C@H](C)CC[C@]3(CCC(=O)[C@H]32)[C@@H](C)[C@@H]1O — MIC50: 0.0625 µg/mL (≈ 0.121 µM)
O=[N+]([O-])c1ccc2c(N=Nc3c(O)ccc4ccccc34)c(O)cc(S(=O)(=O)O)c2c1 — growth delay (LB medium; 100 µM, 50% growth delay): 6.8 h
O=C(O)CN(CCN(CC(=O)O)CC(=O)O)CC(=O)O — MBC (MRSE 35984; 24 h): 1000 µM (≈ 292 µg/mL)
O=C(O)CN(CCN(CC(=O)O)CC(=O)O)CC(=O)O — MBC (MRSE 35984): 250 µM (≈ 73.1 µg/mL)
c1ccc(CN(CCN(Cc2ccccn2)Cc2ccccn2)Cc2ccccn2)nc1 — MBC (Calgary Biofilm Device; MRSE 35984, biofilm; 24 h): 250 µM (≈ 106 µg/mL)
COc1c(N2C[C@@H]3CCCN[C@@H]3C2)c(F)cc2c(=O)c(C(=O)O)cn(C3CC3)c12 — MIC90 (broth microdilution; methicillin-resistant isolates): 2 µg/mL (≈ 4.98 µM)
COc1cccc(OC)c1C(=O)N[C@@H]1C(=O)N2[C@@H]1SC(C)(C)[C@@H]2C(=O)O — MIC (1): 12.5 µM (≈ 4.76 µg/mL)
CC1(C)S[C@@H]2[C@H](NC(=O)[C@H](N)c3ccccc3)C(=O)N2[C@H]1C(=O)O — MIC50: 64 µg/mL (≈ 183 µM)
CN[C@H](CC(C)C)C(=O)N[C@H]1C(=O)N[C@@H](CC(N)=O)C(=O)N[C@H]2C(=O)N[C@H]3C(=O)N[C@H](C(=O)N[C@H](C(=O)O)c4cc(O)cc(O)c4-c4cc3ccc4O)[C@H](O)c3ccc(c(Cl)c3)Oc3cc2cc(c3O[C@@H]2O[C@H](CO)[C@@H](O)[C@H](O)[C@H]2O[C@H]2C[C@](C)(N)[C@H](O)[C@H](C)O2)Oc2ccc(cc2Cl)[C@H]1O — MIC range (broth microdilution; methicillin-resistant clinical isolates): 1 µg/mL (≈ 0.69 µM)

A few entries again:
c1ccc(CN(CCN(Cc2ccccn2)Cc2ccccn2)Cc2ccccn2)nc1 — MBC (Calgary biofilm device; MRSE 35984; planktonic cells): 1000 µM (≈ 425 µg/mL)
